# Results of several laboratories.
# Each numbered part is a random draw from the data of one study; scales do not carry over between parts. Changes are numbered by the printed parent chain.

# Series 1 — target: CCNB2, cyclin fold, Cln2 fusion (human); method: yeast growth competition, sequencing; medium: yeast; notes: weak parent motif; reference: not given; direction: higher = stronger binding
# Starting sequence: CABLES2 docking peptide (human); ICAKRSLCAAFSV
Change,normalised enrichment score
IAAKRSLCAAFSV [C2A],0.00781
ACAKRSLCAAFSV [I1A],0.0327
ICAKRSLCAAFSA [V13A],0.238
ICAKRSLCAAASV [F11A],0.565
ICAKRSACAAFSV [L7A],-0.102

# Series 2 — method: DHFR PCA, deep sequencing; medium: yeast; with: (+)-ABA 0.39 µM; reference: wild-type fitted maximum; direction: higher = stronger binding
# Target: ABI1, truncated, D143A, DHFR fusion (Arabidopsis thaliana)
# Notes: methotrexate growth selection, single substitutions
# Starting sequence: PYL1, truncated, DHFR fusion (Arabidopsis thaliana); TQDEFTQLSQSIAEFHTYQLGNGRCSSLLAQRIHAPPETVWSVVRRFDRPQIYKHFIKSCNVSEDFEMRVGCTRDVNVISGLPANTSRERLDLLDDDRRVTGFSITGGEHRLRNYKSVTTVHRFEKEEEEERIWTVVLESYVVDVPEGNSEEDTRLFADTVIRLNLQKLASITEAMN; partner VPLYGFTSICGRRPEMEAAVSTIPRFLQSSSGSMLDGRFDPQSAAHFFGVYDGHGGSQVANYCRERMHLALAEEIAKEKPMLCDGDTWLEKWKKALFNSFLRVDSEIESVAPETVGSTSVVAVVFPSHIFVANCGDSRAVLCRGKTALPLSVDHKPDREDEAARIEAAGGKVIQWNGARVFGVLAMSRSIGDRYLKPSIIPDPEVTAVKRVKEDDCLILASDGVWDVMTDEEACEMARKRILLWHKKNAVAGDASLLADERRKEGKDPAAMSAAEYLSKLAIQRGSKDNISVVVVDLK
Change,relative binding score
F157R,10.6%
A30S,48.2%
S11R,1.48%
D3P,38.6%
N177H,59%
S140E,2.23%
D48K,-10.7%
V145E,-10.3%
L91E,-4.04%
R74G,-4.74%
Y53C,-5.23%
V142S,26.5%
S104Y,-16.4%

# Series 3 — method: RNA Bind-n-Seq; form: RNA; medium: in vitro; concentration: 365 nM; reference: no-protein control; direction: higher = stronger binding
# Target: RNA binding protein fox-1 homolog 2, RRM domain, GST-SBP tag (RBFOX2, Homo sapiens, UniProt O43251-10, residues 100-194)
# Notes: natural RNA segment, single round, ends assumed
# All sequences stand within: GGGAGUUCUACAGUCCGACGAUC … UGGAAUUCUCGGGUGCCAA
# Construct (chain): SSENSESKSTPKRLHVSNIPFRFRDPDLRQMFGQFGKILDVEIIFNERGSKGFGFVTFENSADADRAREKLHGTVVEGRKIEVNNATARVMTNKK
Sequence,RBNS enrichment (R)
GAGGACCAAAGCAAUUCUUGUUUUAGUUUCUUUGCGAAGCCUGCUCCUCCUUCCCUUCAUAAGGACUUUUUUUGUCUUUCUUUAACGCCCAGGCUUCGUCUUAUUUCUAC,0.379
CAGUGGAGAGAUGUUUGGAAACCACAGUCAGUGGAGCCUGGGUGGUACCCAGGCUUUAGCAUUAUUGGAUGUCAAUAGCAUUGUUUUUGUCAUGUAGCUGUUUUAAGAAA,0.735
UGAGAUGGGUUAGGGCAAGUCUUUGCCAUCCCCCAGAUGGCUCUGUCUUCUUGUGUAUGGCAGGGCUGGGACUGCUGUCCCUUGUACAGUUUUCUGUCACUGGUGGGCAC,0.226
GCCCCGUCCUGGUGCCUCUUCUGGAUGUCCCCAGAUCAUCAUAUCUAUCACCACGAGAGAACUUCCCAUCCAGGGCAGAACUCUGAUCUUAAACACUUCCCACUGCCAGA,0.417
AGAAAUCCACAUGCUUCAGAAUUCAGAGGGUUCAGGGAAUGGUUUCGGAUAGUAGGCUCUCCCUGCUCCCUUCUCUACAGGAAUCUCUGGAAAACUAUCAGAAGACAAAG,0.314
UCCUCAGCCUUCUGGCGGGAGCCCUGAGGCUGCGGACAAAGCCCUUUCAUCUGAGGACUUUCAUCUGUGCAUAUCACGGCCCCCCAGGGCAGUUCCUGCUGGACCAGACU,0.182
AUUAUAGGAGUUGAUUUUUACUUUGCAAAGUGGCUCGGUCCUCAUGAGCAUCUGCAUGUUGACUCUUCAGUUAAGAAAAUUGUUGUUCAUUUAGGGAGGUGGAUAUUCUG,3.02
UUGCUGUCCCUACAAUAUAUAAGGUGACUUCUGGCCAUGCUGCCCUGCCAUUGGCGGCUCUGUGUGUUAAUAGGCUAGGGAGAGAGGGGUGCUGUCUGCCACUUGCUCCC,0.522
UAUUAAUGUACAACUCACCACUUCAUGCCAUAGGAGGCUGAAGUUGACGUUGCCUUUUAAGCCUUUUACAUACACUGGUCAGUUCGGAAAAUUCUCAACAAUAAUGUUUG,0.462
UUUUCCUAAAAAAAAAAAAUGGGAUUUUAGUUCUUAUUCUGUGAUAACUAUCCUCCUCAUAUAAUACUAUUCUUUUUGACACCAUUUGAAGGAACCAAUAUUUGGACCUU,0.486
AAAUGGUCCCAUUGGAGAGUCUCCUAAAUAGACCUUCCAGGCAGAACCGCAAGCUCAAAAUCUUUGUAUAGUUUUGAAAAUUGAGGAGUAGCUUUGUUUGGAAGCCUUUC,0.351
ACGUGGGACACCAUUCAAUUGAUUGCUUUAAGGAAUUUUUAGAGACAUUAUACAGUAUCCUUUUCAGUCCUGCCAUAGAGAGGAACUAGAAUUCAGAUCUCAAUAUUAGG,0.97

# Series 4 — method: universal PBM; form: double-stranded DNA, one strand shown; medium: in vitro; concentration: not given; direction: higher = stronger binding
# Target: Sal-like protein 4, full length isoform B (SALL4, Homo sapiens, UniProt Q9UJQ4-2, residues 1-616)
# Notes: 8-mer, flanks averaged, mean of replicates
Sequence,E-score
ACGGTTAG,-0.0688
AGCGGAAG,-0.176
GTGACCAA,0.168
GAAGTTTA,0.181
AGATAGCT,-0.0934
CACCTTGC,-0.104
AGCAGTGC,-0.134
ACTACAAC,0.135
ACTCCTTA,0.114
AACACTAG,0.0514
CCAGATAG,-0.0663
CTACTGAA,-0.0402
AATTAACC,0.104
TGACAGCA,0.00971
AGCCTTCG,-0.18
ATGCCGAC,-0.154
GTAAGACA,0.0628
AGTCCGAA,0.00772
TCCGCGCA,-0.164
AAAGCAGA,0.0628

# Series 5 — method: protein-binding microarray; form: double-stranded DNA, one strand shown; medium: in vitro; concentration: 2540 nM top; notes: 60-bp whole probe; with: salmon DNA 0.4 mg/ml; reference: random background probes; direction: higher = stronger binding; all sequences stand within: GCCTAGCAC … GTCTTGATTCGCTTGACGCTGCTG
# Target: Interferon regulatory factor 3, full length, phosphomimetic (IRF3, Homo sapiens, UniProt Q14653, residues 1-427, S386D/S396D/S398D/S402D/T404D/S405D)
# Chain of UniProt Q14653 (whole entry, unmodified, looked up): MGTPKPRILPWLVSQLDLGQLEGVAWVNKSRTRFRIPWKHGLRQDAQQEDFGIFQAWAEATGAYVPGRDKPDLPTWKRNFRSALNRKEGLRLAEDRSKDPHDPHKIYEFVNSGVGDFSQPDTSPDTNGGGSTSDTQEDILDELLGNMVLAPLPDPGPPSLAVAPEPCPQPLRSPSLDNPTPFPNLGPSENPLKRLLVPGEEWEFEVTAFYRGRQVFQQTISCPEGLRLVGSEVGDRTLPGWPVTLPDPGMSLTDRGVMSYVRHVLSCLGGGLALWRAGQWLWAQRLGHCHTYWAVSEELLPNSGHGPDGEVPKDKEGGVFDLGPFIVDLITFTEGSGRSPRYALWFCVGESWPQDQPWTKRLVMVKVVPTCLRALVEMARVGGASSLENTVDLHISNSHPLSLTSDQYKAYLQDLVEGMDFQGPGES
Sequence,fitted relative affinity
TTAGGACTGGGTATCGGTTTGTGCTAG,1.57 z-score
GACGATTTCAGCCTGGAGACGTGCTAG,0.471 z-score
GCCGAACTGGGGACTGGAGACGTGCTA,0.578 z-score
TCATTTCTGAATGTCCTACTGTGCTAG,2.36 z-score
GACGGAATCGGGTTTCGGGACGTGCTA,1.6 z-score
TCAGATCACCGATTTCCTACTGTGCTA,1.41 z-score
TTAGGTTTCGGGTCCGGTTAGTGCTAG,4.6 z-score
TCGTTTCCCAAGTTTATACCTGTGCTA,3.75 z-score
TCAAAACTCGTGTTTTTCACTGTGCTA,-0.311 z-score
TTAGGACTGGACTCTCGGTTAGTGCTA,-0.788 z-score
GACGATATCAGTATCGAGAGGTGCTAG,0.987 z-score
GACGAACTGGGGTATCGAGACGTGCTA,-0.439 z-score
TTGGTTTCTGGTTTATTGAGGTGCTAG,3.36 z-score
TCAGTTTTTCATTTTGTACTGTGCTAG,2.43 z-score
GACGGTTCCTGTTTCGGGACGTGCTAG,4.47 z-score
TCACGTCTGATTTTGCTACTGTGCTAG,-0.0354 z-score
GACGATAACGGGTATCGAGACGTGCTA,-0.247 z-score
TTAGGTAGCCTTCTCCTTTAGTGCTAG,2.46 z-score
GCACTGTGCCTGCTGCCCTTGTGCTAG,-0.468 z-score
GACGGTTCCGGACTGGGGACGTGCTAG,1.7 z-score
TCAGTTATAATATTATTACTGTGCTAG,0.608 z-score
ACCCATCTCAAGTAGCCTAGCGTGCTA,1.6 z-score
GACGGTATTGGTCTCGGGACGTGCTAG,0.748 z-score
TAAGATCTCAGTATCGATTAGTGCTAG,0.955 z-score
TGATCTCTGGTCTTTGTCAGGTGCTAG,0.141 z-score

# Single results of other studies
Substance,target or system,test,system,setting,scale,quantity,result
"DDX50 (Homo sapiens, UniProt Q9BQ39)","DDX21 (Homo sapiens, UniProt Q9NR30)",cross-linking MS,cell fractions,with: DSSO,,cross-linked residues,K524 to K600
"PhoQ, residues 284 288 289 292 302 303 SIHLQL","PhoP, residues 12 14 15 18 19 STHWV (Escherichia coli, UniProt P23836)","Sort-seq, refers to: YFP reporter",E. coli,"PhoQ-PhoP variant library, with: 10 µM Mg2+","reference: high Mg2+ state, higher = stronger signaling",fold induction,14.6
"NDUFB3 (Homo sapiens, UniProt O43676)","COX7A2 (Homo sapiens, UniProt P14406)",cross-linking MS,cell fractions,with: DSSO,,cross-linked residues,K39 to K33
"ENO1 (Homo sapiens, UniProt P06733)","SPINDOC (Homo sapiens, UniProt Q9BUA3)",cross-linking MS,cell fractions,with: DSSO,,cross-linked residues,K54 to S181

# A few entries again (series 4):
Sequence,E-score
CACCTTGC,-0.104
AGCAGTGC,-0.134
ACTACAAC,0.135
ACTCCTTA,0.114
AACACTAG,0.0514
CCAGATAG,-0.0663
